Experimental data pooled from the literature.
A part holds a random share of what one study measured. Positions count from the first letter of the parent shown.

Sample 1
Target: Histone acetyltransferase KAT6A, winged helix 2, GST fusion (KAT6A, Homo sapiens, UniProt Q92794, residues 85-181)
Method: protein binding microarray
Molecule type: double-stranded DNA, one strand shown
Sample: in vitro
Tested at: not given
Notes: 8-mer, flanks averaged, mean of 2 arrays, mostly near background
Relative to: not given
Direction: higher = stronger binding
Construct (chain): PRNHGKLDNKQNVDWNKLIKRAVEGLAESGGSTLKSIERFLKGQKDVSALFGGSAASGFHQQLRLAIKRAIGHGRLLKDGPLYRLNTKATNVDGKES
`AGCAACCC` gave an E-score of 0.0443.
The E-score of `TTCTGCAA` is reported as 0.244.
`CTACCAAC` gave an E-score of 0.0689.
For `CTATCACC`, the E-score was -0.186.
With `TACCTCTA` the E-score was -0.0348.
The E-score of `AATGACAT` is reported as -0.0204.
`AGCCAGAT` gave an E-score of 0.0748.

Sample 2
Target: CCNE1, cyclin fold, Cln2 fusion (human)
Method: yeast growth competition, sequencing
Sample: yeast
Notes: strong parent motif
Relative to: not given
Direction: higher = stronger binding
Starting sequence: E2F1 docking peptide (human); PPVKRRLDLETDH; partner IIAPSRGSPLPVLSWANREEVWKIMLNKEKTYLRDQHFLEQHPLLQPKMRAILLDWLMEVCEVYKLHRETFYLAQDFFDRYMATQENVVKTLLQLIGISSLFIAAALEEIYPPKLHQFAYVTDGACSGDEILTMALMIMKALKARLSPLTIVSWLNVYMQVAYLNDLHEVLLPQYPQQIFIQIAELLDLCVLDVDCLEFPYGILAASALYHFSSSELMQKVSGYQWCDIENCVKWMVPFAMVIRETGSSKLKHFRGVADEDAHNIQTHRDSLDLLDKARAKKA
For `K4R`, “normalised enrichment score” read 2.23.
`K4F` — result for “normalised enrichment score”: 0.432.
For `H13S`, “normalised enrichment score” read 2.67.
`P1N`: “normalised enrichment score” 1.28.
`T11G` — result for “normalised enrichment score”: 1.9.
Under “normalised enrichment score”, `T11M` is recorded as 2.71.
For `D12I`, “normalised enrichment score” read 0.94.
Under “normalised enrichment score”, `P2R` is recorded as 1.52.
`R5L` — result for “normalised enrichment score”: 0.164.
`V3K` — result for “normalised enrichment score”: 0.861.
Under “normalised enrichment score”, `L7D` is recorded as 0.327.

Sample 3
Target: CRIPT, C-terminal peptide
Method: DHFR complementation, deep sequencing
Sample: yeast
Notes: single substitutions, model-inferred values
Relative to: wild type
Direction: higher = weaker binding
Starting sequence: ERBIN, PDZ domain 1 (human); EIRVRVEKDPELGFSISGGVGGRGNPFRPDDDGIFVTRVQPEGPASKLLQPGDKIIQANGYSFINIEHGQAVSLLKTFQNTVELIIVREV; partner TKNYKQTSV
`P51W`: “binding free energy change” 0.363 kcal/mol.
`Q79I`: “binding free energy change” 0.0865 kcal/mol.
Under “binding free energy change”, `Q40D` is recorded as 0.401 kcal/mol.
Under “binding free energy change”, `N59M` is recorded as -0.029 kcal/mol.
`F14C` — result for “binding free energy change”: -0.93 kcal/mol.
`Q50H`: “binding free energy change” 0.0863 kcal/mol.
`G18R` — result for “binding free energy change”: 1.31 kcal/mol.

Single results of other studies
`PhoQ, residues 284 288 289 292 302 303 SCEHLI` has a fold induction of 12.5 (PhoP, residues 12 14 15 18 19 QQAYL (Escherichia coli, UniProt P23836); Sort-seq, measured: YFP reporter; E. coli; PhoQ-PhoP variant library, together with: 10 µM Mg2+; relative to: high Mg2+ state, higher = stronger signaling).

A few entries again (sample 2):
Under “normalised enrichment score”, `T11M` is recorded as 2.71.
For `D12I`, “normalised enrichment score” read 0.94.
Under “normalised enrichment score”, `P2R` is recorded as 1.52.
